Assay results pooled from the literature.

The stability half-life of `O=C(Nc1cccc(C(=O)N2CCC(c3nc(-c4ccccc4)n[nH]3)CC2)c1)c1ccccc1` is reported as > 48 h (DPBS; 2 µM).
Under stability, `CCCC[C@H](NC(=O)CNC(=O)CNC(=O)[C@H](CCCCNC(=O)[C@H](CC(=O)O)NC(=O)C(C)c1ccc(CC(C)C)cc1)NC(=O)CN1CCN(CC(=O)O)CCN(CC(=O)O)CCN(CC(=O)O)CC1)C(=O)N[C@H]1CC(=O)NCCCC[C@@H](C(N)=O)NC(=O)[C@H](Cc2c[nH]c3ccccc23)NC(=O)[C@H](CCCNC(=N)N)NC(=O)[C@@H](Cc2ccccc2)NC(=O)[C@H](Cc2c[nH]cn2)NC1=O` (stereo partly drawn) [lutetium-177 labelled] is recorded as “stable” (mouse serum; 4 h, 37 °C).
The stability time of `CC(C)(O)c1ncc([S@](N)(=O)=NC(=O)Nc2c3c(cc4c2CCC4)CCC3)s1` is reported as ≥ 24 h (human urine; room temperature).
`O=C([O-])CN1Cc2cccc(n2)CN(CC(=O)[O-])Cc2cccc(n2)C1.[Mn+2]`: “stability constant log β” 7.65 (voltammetry, Nernst equation; Mn(III) complex).
`COc1ccc(C([O-])=CC(=O)c2ccc(C(C)(C)C)cc2)cc1.[Cl-].[Ru+2].c1ccc(-c2cccc(-c3ccccn3)n2)nc1`: “stability onset time” ≤ 6 h (MLCT absorbance and HPLC; water, PBS, Opti-MEM; 37 °C).
`CCCCCCC(=O)[O][Pt]([NH2])([NH2])([Cl])([Cl])[O]C(=O)CCC(C)C1CCC2C3CCC4CC(O)CCC4(C)C3CCC12C` (stereo not drawn) — result for stability: “stable” (HPLC; DMEM cell culture medium; 6 h, 37 °C).
`CCCC[N+]1=c2cc3c4cc2[O][Mn-2]1(=[C]=O)(=[C]=O)(=[C]=O)[n+]1ccc(cc1)C(=O)Nc1ccccc1NC(=O)c1cc[n+](cc1)[Mn-2](=[C]=O)(=[C]=O)(=[C]=O)([O]3)[N+]=4CCCC` gave a stability time of ≥ 12 h (DMSO/water 8:2; dark).
For `O=C(NCc1ccc2c(c1)CN(C(=O)c1cc(-c3ccccc3)no1)C2)C1C=CC=CC=C1`, the stability half-life was > 48 h (DPBS; 2 µM).
`CCCC[C@H](OC(C)=O)c1ccccc1C(=O)O` has a stability time of ≤ 0.5 h (whole blood, Sprague-Dawley rat and beagle dog).

For quick reference, copied from above:
The stability half-life of `O=C(Nc1cccc(C(=O)N2CCC(c3nc(-c4ccccc4)n[nH]3)CC2)c1)c1ccccc1` is reported as > 48 h (DPBS; 2 µM).
